Results of several laboratories.
A part holds a random share of what one study measured.

Set 1
Target: RNA binding protein fox-1 homolog 2, RRM domain, GST-SBP tag (RBFOX2, Homo sapiens, UniProt O43251-10, residues 100-194)
Method: RNA Bind-n-Seq
Form: RNA
Medium: in vitro
Tested at: 365 nM
Notes: natural RNA segment, single round, ends assumed
Baseline: no-protein control
Direction: higher = stronger binding
Shared flanks, not repeated: GGGAGUUCUACAGUCCGACGAUC … UGGAAUUCUCGGGUGCCAA
Construct (chain): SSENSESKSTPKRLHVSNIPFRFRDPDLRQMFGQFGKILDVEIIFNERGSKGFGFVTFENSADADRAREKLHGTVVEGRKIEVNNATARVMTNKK
Strand	RBNS enrichment (R)
UGCUCAUGAGAGAUGUCAGGCUUCCUGGAGGCAUCAGGCUUUGAGCCCUGCUGGGGUCCAACUGACCUGGGACCAGGUGUCGCGCAGAGAUGUGCCUCAUUCUGUGCCUC	0.28
AUUUAACAAAUGGACUCUCUUAAUUCUACUGGACCCAGGCCUUGAACUUUCUGGUUUCUGUCUCUGUGCUCUGACUUUUUGAUUUCAGGUCUAGCCCUGUGCACUUACCU	0.506
UUAUGAGGCACCUACCUUCAUUUUGCUAACGCUUAUUCUGAAUAAAAGUUUUUGAUUCCUUAAAGACUCUUUUCUCUUUUGGUUUUUUAUGAGAAACACAGCAUUUGAUC	0.524
ACUGUCCCUGAAGCCUUCGCAUCUCAGCUCUUCACCCCUGGGAGGCAGCUGAUCGCCCUGCGUGCUGUGUCGCGCUGCUUUGUCCCAGACACAAACCAGCACGUCAAGGG	0.756
UAAAGAAGGGACUUGAAUUUUAGGGACUUUAAUUCACCCUUUCCUUCAAUCCAGCUUUCCCCCUUCUUGUUUGCACAUGCCAAGAUAACUGCUUUUAUGCAGGCUUUACC	0.588
UAUAUAUUUUACCAAUUUAAUGUGAAUUUUAAAAAAUCCCUAUGCUAUUUAAAAGAAAGAAAAUGUAUUUUCCAUAGUAGUUUUGUGUAAAUCGUAUGAUUCACCUCAUC	0.479
UGGUGACUAUCCUGCCUUAAUCACUUUGCUUUAGGGCAACUCAUGGUGAUCUCUUCCAAGAUCUGUUUUUAAAUUGUUUGGACUACUUGAGCCACAACUCUCAGAGGACA	0.31
UAAAGCAAAAGUCACCUAUACCGUAAUAGAAAUGUUGCUAUCUCUAUACAAGUGCACUUUGAUCUGUAAAUAGUUCUAAUCAAAGCAUAACAAAACACUGCUUCAAGAUU	0.306
UUACUGGGUUUGUUUUUAAUAUUAUUACAAAAUAGAAUGAUCCAGUGUUGCAGAUUUGAUACAACUCCCCAAUCUAGAUUUGACCUAACAUUCUGAAUGAACAGGGUAGG	0.381
CUCCGAGGCCGACGAGAUGGCCAAGGCGCUGGAGGCGGAGCUCAACGACCUCAUGUGAGCGCGGGCAGCGGGCAGGGACUGAAGCCUGACCGACCUCCAGCAGCACUCGG	0.343
CACAUACAGUUCUUUUUAGGCAUGAGUGUGUAUUACUGAUCCAACAUCUUCAUUCAUUCACUGAGUAUUUAUUGAACGCCUCCUAGGUGUCGGACAUGUACUGGGUGCUG	0.254
AAUGAAUUUGUACUUUGAAAGGAAUGAUAUUGACACUAAAAUUUUAAACAUUUAAAUUUUUUCAUAAUCUUUCAUAAAGAAGUUUAAUAAUAGGUAUAUUAACUGAAUUU	0.663

Set 2
Target: Phosphate system positive regulatory protein PHO4, full length, GST-tagged (PHO4, Saccharomyces cerevisiae, UniProt P07270, residues 1-312)
Method: competition protein-binding microarray
Form: double-stranded DNA, one strand shown
Medium: in vitro
Tested at: 2 µM
Notes: whole 60-bp probe, lowest competitor level
Together with: Cbf1 competitor, 0.05 µM
Direction: higher = stronger binding
Shared flanks, not repeated: … GTCTTGATTCGCTTGACGCTGCTG
Target sequence (chain): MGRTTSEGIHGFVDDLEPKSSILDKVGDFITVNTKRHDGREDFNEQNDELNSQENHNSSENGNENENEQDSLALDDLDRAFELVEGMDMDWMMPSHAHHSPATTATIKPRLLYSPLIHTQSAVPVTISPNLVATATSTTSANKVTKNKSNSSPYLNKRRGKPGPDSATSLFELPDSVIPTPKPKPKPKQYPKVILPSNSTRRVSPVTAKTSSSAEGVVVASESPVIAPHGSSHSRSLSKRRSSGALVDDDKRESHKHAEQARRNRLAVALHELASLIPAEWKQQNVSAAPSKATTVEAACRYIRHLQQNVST
Strand	fluorescence intensity [a.u.]
TGCGCAACAACTTTTCACGTGTGATTATGTCTAGAA	12900
GATGAGTATACTTGGTACGTGCCTACGCAGCCAATA	7510
CTTTCTCCCATTCCGCACGTGTCTGCACAAGGCTGG	19600
CGCTTCATATAATGTTTTTTGATTTGCAGCAAATGC	3710
CTTTCCCGATCTTGTCACTCCACTTTAGCACATTTG	4090
TGCGCAACAACTTCGCACGTGTTTTTATGTCTAGAA	20900
CGTCCTAGTGATTTTCACGTGCAGTCCATGAGGAAG	15900
GTCTTGTCTCATTTTCACGTGCCTTTCCCCACTTCA	14600
TCTCTGGCCTCCCATCACGTTACTTTATTACCCGGA	7050
CTAACGAAGGTTTTTCACGTGTGGTACAAGCCAAGT	13300
CTTCTGTAAATTTGTCACTGAACTTGACGCGCCCCG	2870
TGCGCAACAACTTGTCACAGAACTTTATGTCTAGAA	3150
ACTGGGCGCAACAAACACCTGATGTAACTCCTACCC	4660
TCAAGTAGAATACTACACGTGCAAACGGTAGCAAGC	16100
AAATTACTAAGTTGCATAGTGGGTGACGCCGTATGA	4450
CGTCCTAGTGATTGGTAGGTGGGTGCCATGAGGAAG	7290
GTCTTGTCTCATTGGGAGGTGGGTGTCCCCACTTCA	4490
TTCCATTTGAACTGTCACATGACGAAACAGATGAAC	8140
GTCTTGTCTCATTTTCACGTGGCGTTCCCCACTTCA	12100
CCAGTAGAGTGGTAAAGCGTGCCTACGGCGGTGTTG	8820
GTCTTGTCTCATTGCGGTGTGGGTGTCCCCACTTCA	5810
GTCGCGTAATTTTCTTGAAACCATCCATTCACCGAT	3400

Set 3
Target: Ras GTPase-activating protein-binding protein 1, C-terminal RGG region (G3BP1, Homo sapiens, UniProt Q13283)
Chain of UniProt Q13283 (whole entry, looked up): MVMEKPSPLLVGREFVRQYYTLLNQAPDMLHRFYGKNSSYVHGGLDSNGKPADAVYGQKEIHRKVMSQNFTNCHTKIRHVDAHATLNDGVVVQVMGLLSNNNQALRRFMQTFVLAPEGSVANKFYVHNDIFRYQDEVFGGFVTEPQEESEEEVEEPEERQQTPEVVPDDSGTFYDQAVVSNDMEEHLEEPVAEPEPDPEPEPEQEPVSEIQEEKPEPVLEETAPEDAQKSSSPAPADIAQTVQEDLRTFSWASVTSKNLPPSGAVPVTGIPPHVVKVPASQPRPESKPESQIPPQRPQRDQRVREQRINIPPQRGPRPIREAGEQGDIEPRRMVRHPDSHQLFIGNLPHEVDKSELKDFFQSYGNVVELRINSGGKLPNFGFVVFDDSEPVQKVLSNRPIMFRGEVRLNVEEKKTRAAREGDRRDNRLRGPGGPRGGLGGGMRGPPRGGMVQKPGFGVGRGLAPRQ
Method: RNA Bind-n-Seq
Form: RNA
Medium: in vitro
Tested at: 1 µM
Notes: whole 134-nt RNA, ends assumed
Together with: 150 mM KCl
Baseline: input library
Direction: higher = stronger binding
Shared flanks, not repeated: GGGAGUUCUACAGUCCGACGAUC … UGGAAUUCUCGGGUGUCAAGG
Strand	log2 enrichment
GUCCUGUGCUACACAUCGUAUGUACCGAAUCGGAAAAAAGGGAAAAAAGGGAAAAAAGGAAAGUAUUAUGUUACGCCGUUCGGAUCUGCA	-1.55
GCAGGAAGUAAGAACAAAUGGAAAUGCUUCGGAUAGUGGCAGGGGUGGGGGUUGCUAAGGAAAGGGUGGGAUGGGAGUGGGUAAAGAGUU	1.31
UGGGAGGUGGAUUUUGUUUAUUUUUUUAGCUCAUUUCCAGGGGUGGGAAUUCUUUUUUAAUAUGUGUCAUGAAUAAAGUUGUUUUUGAAA	4.07
CUCAAGUCCUGUGCUACACAUCGUAUGUACCGAAUCGGGAAGGAAGGGAAGGGGAAAGUAUUAUGUUACGCCGUUCGGAUCUGCACUUCC	-0.461
UCCUGUGCUACACAUCGUAUGUACCGAAUCGGGAAAGGGUUUUUUUGGGUUUUUUUGGGAAAGUAUUAUGUUACGCCGUUCGGAUCUGCA	-0.47
CCUCAAGUCCUGUGCUACACAUCGUAUGUACCGAAUCGGUUUGGAAAGGUGGAAAGUAUUAUGUUACGCCGUUCGGAUCUGCACUUCCAG	-0.78
ACCAUGCAGGUGGGCAUCUCUGGGAAGUGGGGCAAGGGGGGGAUAGGGAGGGGGGUAACACUUUGGGAACAGGUGGUCCCAGGUCGUUUC	-0.752
UGGCCCUGGUGGGAUGCGGGGAGGAAGAGGUGGCCUCAUGGAUCGUGGUGGUCCCGGUGGAAUGUUCAGAGGUGGCCGUGGUGGAGACAG	1.99
ACCAUGCAGGUGGGCAUCUUUGGGAAGUGGGGCAAGGGGGGGAUAGGGAGGGGGGUAACACCUUGGGAACAGGUGGUCCCAGGUCGUUUC	2.26
GCAGGAAGUAAAAACAAAUGGAAAUGCUUCGGAUAGUAGCAGGGGUGGGGGUUGCUAAGGAAAGGGUGGGAUGGGAGUGGGUAAAGAGUU	0.837
GCAGGAAGUAAAAACAAAUGGAAAUGCUUCGGAUAGUGGCAGGGGUGGGGGUUGCUAAGGAAAGGGUGGGAUGGUAGUGGGUAAAGAGUU	1.09
CCUGUGCUACACAUCGUAUGUACCGAAUCGGAAAAAAAGGGGAAAAAAAGGGAAAAAAAGGAAAGUAUUAUGUUACGCCGUUCGGAUCUG	-1.86
GUCCUGUGCUACACAUCGUAUGUACCGAAUCGGAAAAAGGGGAAAAAGGAAAAAGGGGAAAGUAUUAUGUUACGCCGUUCGGAUCUGCAC	-1.04
UGGCCCUGGUGGCGUGCGGGGAGGAAGAGGUGGCCUCAUGGAUCGUGGUGGUCCCGGUGGAAUGUUCAGAGGUGGCCGUGGUGGAGACAG	2.11

Set 4
Target: Prothrombin, mature alpha-thrombin (F2, Homo sapiens, UniProt P00734)
Method: aptamer microarray, sandwich
Form: DNA with 2'F-ANA
Medium: in vitro
Tested at: 200 nM
Notes: whole 15-mer aptamer, many near background
Together with: Cy3 exosite-II aptamer, 400 nM
Direction: higher = stronger binding
Strand: GGTTGGTGTGGTTGG
Modification	mean fluorescence intensity [a.u.]
2'F-ANA at 1 2 3 4 5 6 8 11 12 13 15	71.3
2'F-ANA at 7 12 13 14	249
2'F-ANA at 1 2 4 6 7 8 10 11 12 14 15	51
2'F-ANA at 1 3 5 14	40.4
2'F-ANA at 4 6 7 8 9 10 11 12 15	95.5
2'F-ANA at 7 8 9 13 14 15	197
2'F-ANA at 1 2 3 6 7 10 11 13 14 15	56.3
2'F-ANA at 1 3 5 6 7 9 12 14	54.3
2'F-ANA at 4 6 7 9 14	129
2'F-ANA at 1 3 4 6 9 10 12 13	72.9
2'F-ANA at 4 5 6 7 8 11 12 15	175
2'F-ANA at 1 6 9 11 12	268
2'F-ANA at 2 5 8 11 13 14 15	48.1
2'F-ANA at 1 2 7 8 9 14 15	58.4
2'F-ANA at 4 5 6 7 8 9 11 14 15	64.6
2'F-ANA at 1 4 6 8 11 13 15	88.7
2'F-ANA at 2 3 6 7 11 12 13	827
2'F-ANA at 3 6 7 8 9 13 14	613
2'F-ANA at 1 2 5 7 8 10 15	49.5
2'F-ANA at 3 6 7 11 13 14 15	518
2'F-ANA at 4 5 7 10 11 13 15	90.5
2'F-ANA at 2 3 4 8 9 10 13	289
2'F-ANA at 1 4 6 7 8 10 12 15	60.3
2'F-ANA at 5 6 7 8 9 10 12 15	52.8
2'F-ANA at 1 3 6 7 9 11 14	85.2
